Published values of several laboratories.
Every numbered part comes from another study and shows a few of its results, in no order.
UniProt Q8WTQ7, sequence (whole entry, looked up): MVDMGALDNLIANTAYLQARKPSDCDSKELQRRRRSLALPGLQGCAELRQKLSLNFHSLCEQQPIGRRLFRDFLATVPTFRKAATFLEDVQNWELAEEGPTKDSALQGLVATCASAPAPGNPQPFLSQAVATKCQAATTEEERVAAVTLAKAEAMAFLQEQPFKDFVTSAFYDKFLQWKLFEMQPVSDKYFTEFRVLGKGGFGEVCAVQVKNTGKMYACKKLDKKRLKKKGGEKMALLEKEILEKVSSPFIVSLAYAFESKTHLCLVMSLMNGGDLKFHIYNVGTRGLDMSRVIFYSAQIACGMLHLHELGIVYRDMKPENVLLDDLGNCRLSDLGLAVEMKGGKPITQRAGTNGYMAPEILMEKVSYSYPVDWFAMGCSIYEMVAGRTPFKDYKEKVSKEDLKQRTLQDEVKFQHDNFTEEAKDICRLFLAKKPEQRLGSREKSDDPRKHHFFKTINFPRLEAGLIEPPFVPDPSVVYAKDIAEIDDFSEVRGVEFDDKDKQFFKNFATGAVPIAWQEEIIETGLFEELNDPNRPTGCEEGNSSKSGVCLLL
UniProt Q9C8N7, sequence (whole entry, looked up): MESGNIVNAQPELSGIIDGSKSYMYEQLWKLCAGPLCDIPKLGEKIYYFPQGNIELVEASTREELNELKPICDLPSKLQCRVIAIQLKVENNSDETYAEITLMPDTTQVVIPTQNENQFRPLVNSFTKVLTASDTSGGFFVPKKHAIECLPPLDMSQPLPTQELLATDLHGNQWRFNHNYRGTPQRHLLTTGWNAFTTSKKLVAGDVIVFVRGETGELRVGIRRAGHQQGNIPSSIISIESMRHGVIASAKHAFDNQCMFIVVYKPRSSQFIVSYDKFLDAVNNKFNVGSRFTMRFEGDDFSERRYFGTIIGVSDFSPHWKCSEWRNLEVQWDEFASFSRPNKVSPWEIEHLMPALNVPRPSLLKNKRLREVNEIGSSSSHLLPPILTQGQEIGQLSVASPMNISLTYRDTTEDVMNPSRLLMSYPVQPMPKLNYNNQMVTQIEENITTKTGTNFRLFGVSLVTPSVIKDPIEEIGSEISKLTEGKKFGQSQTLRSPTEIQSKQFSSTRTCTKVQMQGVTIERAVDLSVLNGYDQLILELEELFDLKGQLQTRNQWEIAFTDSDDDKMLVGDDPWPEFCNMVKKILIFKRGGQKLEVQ
UniProt P27361, sequence (whole entry, looked up): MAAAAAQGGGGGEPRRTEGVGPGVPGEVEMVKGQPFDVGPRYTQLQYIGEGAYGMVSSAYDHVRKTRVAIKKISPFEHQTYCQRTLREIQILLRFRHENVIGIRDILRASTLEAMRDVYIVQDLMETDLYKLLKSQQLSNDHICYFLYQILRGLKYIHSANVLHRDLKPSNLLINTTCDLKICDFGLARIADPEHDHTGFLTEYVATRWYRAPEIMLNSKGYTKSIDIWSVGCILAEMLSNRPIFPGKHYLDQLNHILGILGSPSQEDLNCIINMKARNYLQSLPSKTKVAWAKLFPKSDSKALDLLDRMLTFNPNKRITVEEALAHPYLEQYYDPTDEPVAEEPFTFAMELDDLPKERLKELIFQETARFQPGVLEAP
UniProt P49841, sequence (whole entry, looked up): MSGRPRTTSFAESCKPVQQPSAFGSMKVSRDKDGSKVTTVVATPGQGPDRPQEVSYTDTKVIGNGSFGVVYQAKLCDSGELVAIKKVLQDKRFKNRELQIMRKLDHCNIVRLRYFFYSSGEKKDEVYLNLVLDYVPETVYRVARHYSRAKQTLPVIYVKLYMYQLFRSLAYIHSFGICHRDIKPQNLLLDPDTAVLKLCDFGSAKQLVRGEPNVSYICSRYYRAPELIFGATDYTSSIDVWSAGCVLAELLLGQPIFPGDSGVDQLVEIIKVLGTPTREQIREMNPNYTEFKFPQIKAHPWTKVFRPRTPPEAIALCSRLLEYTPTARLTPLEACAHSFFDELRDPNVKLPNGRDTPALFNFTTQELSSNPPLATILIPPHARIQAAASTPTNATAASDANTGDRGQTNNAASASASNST
UniProt P09619, sequence (whole entry, looked up): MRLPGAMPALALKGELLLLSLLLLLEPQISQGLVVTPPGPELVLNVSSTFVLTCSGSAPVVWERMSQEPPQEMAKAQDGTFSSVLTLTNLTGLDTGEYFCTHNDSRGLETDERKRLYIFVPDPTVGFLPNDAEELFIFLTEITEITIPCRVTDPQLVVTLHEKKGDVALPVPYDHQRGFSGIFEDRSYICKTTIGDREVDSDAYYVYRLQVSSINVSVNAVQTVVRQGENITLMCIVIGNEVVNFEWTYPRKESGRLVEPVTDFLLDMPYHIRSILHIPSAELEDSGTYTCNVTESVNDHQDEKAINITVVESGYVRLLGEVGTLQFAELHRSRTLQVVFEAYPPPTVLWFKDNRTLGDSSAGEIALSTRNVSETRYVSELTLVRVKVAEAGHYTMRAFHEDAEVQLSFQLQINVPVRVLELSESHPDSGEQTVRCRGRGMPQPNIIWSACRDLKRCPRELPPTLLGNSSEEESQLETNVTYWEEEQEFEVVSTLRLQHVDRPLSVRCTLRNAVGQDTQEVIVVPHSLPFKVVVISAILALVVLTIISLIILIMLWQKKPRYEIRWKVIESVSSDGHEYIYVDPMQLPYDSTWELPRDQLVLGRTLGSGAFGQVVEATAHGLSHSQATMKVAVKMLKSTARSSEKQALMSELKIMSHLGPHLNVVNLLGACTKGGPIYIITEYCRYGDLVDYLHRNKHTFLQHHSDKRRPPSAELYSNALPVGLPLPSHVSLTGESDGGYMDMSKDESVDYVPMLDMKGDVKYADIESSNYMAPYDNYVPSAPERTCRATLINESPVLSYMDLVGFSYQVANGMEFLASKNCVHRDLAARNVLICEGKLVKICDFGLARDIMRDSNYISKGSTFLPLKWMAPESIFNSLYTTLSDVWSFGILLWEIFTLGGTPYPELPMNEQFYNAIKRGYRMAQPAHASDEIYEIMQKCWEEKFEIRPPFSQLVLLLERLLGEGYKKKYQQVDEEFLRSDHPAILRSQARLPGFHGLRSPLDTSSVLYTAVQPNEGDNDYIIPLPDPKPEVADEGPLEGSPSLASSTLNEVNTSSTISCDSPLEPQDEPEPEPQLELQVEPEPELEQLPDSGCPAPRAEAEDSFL
UniProt O24409, sequence (whole entry, looked up): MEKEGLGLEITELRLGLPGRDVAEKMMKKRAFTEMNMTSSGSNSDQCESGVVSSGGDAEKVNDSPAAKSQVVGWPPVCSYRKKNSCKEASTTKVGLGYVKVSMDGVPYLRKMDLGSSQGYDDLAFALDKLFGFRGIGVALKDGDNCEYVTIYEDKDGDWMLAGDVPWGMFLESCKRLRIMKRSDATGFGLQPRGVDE
UniProt Q15349, sequence (whole entry, looked up): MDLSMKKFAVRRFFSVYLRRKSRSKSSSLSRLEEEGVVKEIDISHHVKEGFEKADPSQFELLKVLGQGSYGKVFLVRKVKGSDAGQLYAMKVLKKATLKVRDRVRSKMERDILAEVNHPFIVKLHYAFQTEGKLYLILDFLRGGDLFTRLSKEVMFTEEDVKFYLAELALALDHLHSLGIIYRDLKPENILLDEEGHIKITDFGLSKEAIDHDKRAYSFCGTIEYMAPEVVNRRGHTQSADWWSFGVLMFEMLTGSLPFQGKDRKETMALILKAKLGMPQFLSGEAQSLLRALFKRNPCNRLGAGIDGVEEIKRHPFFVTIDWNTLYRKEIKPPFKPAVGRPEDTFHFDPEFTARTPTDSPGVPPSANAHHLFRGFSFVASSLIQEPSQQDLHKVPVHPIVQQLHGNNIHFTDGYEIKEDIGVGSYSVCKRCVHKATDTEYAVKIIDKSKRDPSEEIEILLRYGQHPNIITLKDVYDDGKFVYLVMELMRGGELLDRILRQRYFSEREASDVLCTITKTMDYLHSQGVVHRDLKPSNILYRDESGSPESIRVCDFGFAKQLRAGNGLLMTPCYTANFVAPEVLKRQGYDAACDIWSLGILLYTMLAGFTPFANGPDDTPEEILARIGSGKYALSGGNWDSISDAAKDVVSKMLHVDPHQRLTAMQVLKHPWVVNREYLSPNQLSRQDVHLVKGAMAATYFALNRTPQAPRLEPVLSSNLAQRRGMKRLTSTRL
UniProt Q13153, sequence (whole entry, looked up): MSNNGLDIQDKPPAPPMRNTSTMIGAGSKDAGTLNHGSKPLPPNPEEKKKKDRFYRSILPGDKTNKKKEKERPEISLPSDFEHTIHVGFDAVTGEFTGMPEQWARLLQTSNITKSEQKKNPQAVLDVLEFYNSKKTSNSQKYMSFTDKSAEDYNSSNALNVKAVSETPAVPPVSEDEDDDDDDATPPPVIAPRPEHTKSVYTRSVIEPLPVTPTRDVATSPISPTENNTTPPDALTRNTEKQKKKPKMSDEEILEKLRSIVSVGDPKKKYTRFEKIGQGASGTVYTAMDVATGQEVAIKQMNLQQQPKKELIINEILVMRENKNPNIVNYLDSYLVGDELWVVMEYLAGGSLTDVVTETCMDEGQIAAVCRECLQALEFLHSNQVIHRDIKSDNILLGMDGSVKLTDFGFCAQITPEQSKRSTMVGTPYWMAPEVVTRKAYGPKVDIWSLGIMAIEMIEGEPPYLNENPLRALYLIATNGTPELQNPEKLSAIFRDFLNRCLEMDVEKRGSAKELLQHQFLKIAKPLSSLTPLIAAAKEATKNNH

Set 1
Target: Hepatocyte nuclear factor 3-alpha (Foxa1, Mus musculus, UniProt P35582, residues 1-468, full length assumed)
Technique: EMSA with sequencing
Molecule type: double-stranded DNA, one strand shown
Matrix: in vitro
Concentration: 10 and 20 nM
Notes: whole designed probe, mean of two concentrations, ends assumed
Baseline: negative control set to 0
Reading: higher = stronger binding
Shared flanks, not repeated: GTGAGCGGTGCCCATTGATGGGGAAC … TTTCACTGGGATCGTGGGGAC
Target sequence (chain): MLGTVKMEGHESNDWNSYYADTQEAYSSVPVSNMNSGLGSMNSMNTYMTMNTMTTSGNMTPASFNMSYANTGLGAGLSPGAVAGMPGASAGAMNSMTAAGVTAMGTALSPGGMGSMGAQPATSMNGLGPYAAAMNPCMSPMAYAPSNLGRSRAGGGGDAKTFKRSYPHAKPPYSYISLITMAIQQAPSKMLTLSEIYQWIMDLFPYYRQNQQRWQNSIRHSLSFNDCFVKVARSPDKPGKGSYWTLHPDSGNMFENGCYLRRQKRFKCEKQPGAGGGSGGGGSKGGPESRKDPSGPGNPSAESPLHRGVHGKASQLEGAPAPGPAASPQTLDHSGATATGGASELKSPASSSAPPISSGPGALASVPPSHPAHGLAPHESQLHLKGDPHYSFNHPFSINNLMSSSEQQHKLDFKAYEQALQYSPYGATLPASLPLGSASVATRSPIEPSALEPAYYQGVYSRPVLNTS
Strand | normalised bound fraction
ATCTTCCCCCTCTTCCTTGCCCCACCAGCTCACCTACGGGGGTTATTTGCAGATAGGAAAATAAATAAAGCCGGCATTCGTTAACGCAGTTCTGGCGCAAACTGCTGTTTGCTCTGCATCTAACATGGTCCTTACGCGACGCCAGGCTCCGGGAGAGCAAAGCACCGTGTCAGGCGCATGATCCGGGGTGGCC | 0.359 ratio
ATCTTCCCCCTCTTCCTTGCCCCACCAGCTCACCTACGGGGGTTATTTGCACAAAGGAAAATAAATAAAGCCGGCATTCGTTAACGCAGTTCTGGCGCAAACTGCTGTTTGCTCTGGATGAATCATGGTCCTTTGGCGAGGCGTGGCTCCGGGAGAGCAAAGCACCGTGTCAGGGCCATGATCCGGGGTGGCC | 0.382 ratio
ATCTTCCCCCTCTTCCTTGCCCCACCAGCTCACCTACGGGGGTTATTTGCACAAAGGAAAATAAATAAAGCCGGCATTCGTTAACCCTCTTCACGCGCATACTGCTGTTTGCTCTGGATGAATCATGGTCCTTTGGCGACGCCAGGCTCCGGGAGAGCAAAGCACCGTGTCAGGGCCATGATCCGGGGTGGCC | 0.383 ratio
ATGTAGTAATGGATTGGAGTTGGAGATATCAGTATGAATTCATGCTTAGTGTGATATAGACAGAAATGTATTTATAGATATGTTTATATATATGTCAATATACACATATATATTTCCTTGCTATGTCAGCTGAGAAGGCATAGAAACAACAACAACTCAGTAGCAGTGAGCACCCTAGTGCCCAGATCTTGGT | 0.24 ratio
TAAAAGCTGGTGAAATCTGAATAAGGTCTGTACCTGAGTTAAGAGGACTGTATCAATGACCATTTCCTGGTTTTGACAGTGTACTGTGGTTATGTAATTTTGGTTATGTGTATGTATCACTGGGGAAGCTGGGGAAGCATACATGGGAACTTTATGACTGTGCAACGTCTTGTGAGTCAACTACCTCAAATTA | -0.0266 ratio
CTCCTACTGATTGCCATATTTCTTTCACAGGATAACATAAGATTGGGTCAGCAGAATGGTGTTAACATGTTTATTTTGAGTGACTCACTCACAGCAAACAATGGTTGAGTTCAGGACTCTGGGCTGCCCAATGGTCCACTGCCAACTCTTAGGTTTAGACTTGGTGTGCAAGCCTGGTGTGCACTGGCTTTCC | 0.27 ratio
CCACCCCCCACCTTATTCTTCCTCTTTAATGAATATTTTTATTGGAGCTCAAACTCCATGACTTACGTGCTCACTAAGTTTTCTTTTTTCCCCTTGTTTACTCTGTCTGTATGTATGTCAAAAGCTGGCAAAACCTCTAAAACTGTCAAGAAAATGCTTGAAAGTTGATTTGTCATAGTGCAAATTCATGATA | 0.302 ratio
CTAGCTCCAGTCTTAGCATGGCAATTTCTTCCCGCAACGTACTATTTTCATGCAAGACGTCTTTTTCTTTCTTACAACTAAGAGAAAGCTAAGTAATCTAAGAGAACTTTTAGTTAGCACTCAATAGATTGACATATCATGATTTCTTCTGAAATTCAAAAATAACATGTATTTGTATAATGAAAGAATCCCC | 0.106 ratio

Set 2
Compound: C[C@H](c1ccc(F)cc1)N(Cc1cccc(C(=O)O)c1)C(=O)c1cnc2ccccc2c1
Observed: cell-free assay
Technique: competition with immobilised ligand
Concentration: 1 µM
target | remaining binding [%]
ALK (Homo sapiens, UniProt Q9UM73, C1156Y) | 69
PDGFRB (Homo sapiens, UniProt P09619) | 100
PAK1 (Homo sapiens, UniProt Q13153) | 100

Set 3
SMILES: Cc1ccc(NC2=CC(=O)c3sc(C)nc3C2=O)cc1
Observed: enzyme activity
Mode: inhibitor
Concentration: 0.5 µM
Baseline: control
target | remaining activity [%]
GSK3B (Homo sapiens, UniProt P49841) | 82
EPHA3 (Homo sapiens, UniProt P29320) | 96.6
MAPKAPK2 (Homo sapiens, UniProt P49137) | 97.6
MAP3K14 (Homo sapiens, UniProt Q99558) | 98.2
RPS6KA2 (Homo sapiens, UniProt Q15349) | 82.5
MAP2K2 (Homo sapiens, UniProt P36507) | 98.8
ABL2 (Homo sapiens, UniProt P42684) | 98.3
ULK2 (Homo sapiens, UniProt Q8IYT8) | 96.9
MERTK (Homo sapiens, UniProt Q12866) | 80.5
MAPK3 (Homo sapiens, UniProt P27361) | 100
TAOK2 (Homo sapiens, UniProt Q9UL54) | 96.6
MAP3K5 (Homo sapiens, UniProt Q99683) | 119
GRK7 (Homo sapiens, UniProt Q8WTQ7) | 101

Set 4
Substance: IAA7 (Arabidopsis thaliana, UniProt Q38825)
UniProt Q38825, sequence (whole entry, looked up): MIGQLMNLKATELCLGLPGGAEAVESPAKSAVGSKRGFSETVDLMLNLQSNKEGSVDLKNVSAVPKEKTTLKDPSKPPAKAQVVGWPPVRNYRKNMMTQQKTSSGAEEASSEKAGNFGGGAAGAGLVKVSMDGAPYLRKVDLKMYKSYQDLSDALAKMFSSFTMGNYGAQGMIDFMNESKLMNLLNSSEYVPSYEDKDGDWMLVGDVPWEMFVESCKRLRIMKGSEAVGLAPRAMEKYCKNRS
Technique: two-hybrid
Reading: higher = firmer interaction
partner | baseline | positive tests
ARF19 948-1086 (Arabidopsis thaliana, UniProt Q8RYC8) | out of 4 tests | 4
IAA19 (Arabidopsis thaliana, UniProt O24409) | out of 4 tests | 1
ARF2 727-859 (Arabidopsis thaliana, UniProt Q94JM3) | out of 4 tests | 1
IAA16 (Arabidopsis thaliana, UniProt O24407) | out of 4 tests | 1
ARF8 699-811 (Arabidopsis thaliana, UniProt Q9FGV1) | out of 2 tests | 2
IAA17 (Arabidopsis thaliana, UniProt P93830) | out of 4 tests | 2
ARF22 498-598 (Arabidopsis thaliana, UniProt Q9C8N7) | out of 4 tests | 3
ARF14 497-605 (Arabidopsis thaliana, UniProt Q9LQE8) | out of 4 tests | 0

Excerpt of the above (set 2):
target | remaining binding [%]
ALK (Homo sapiens, UniProt Q9UM73, C1156Y) | 69
PDGFRB (Homo sapiens, UniProt P09619) | 100
PAK1 (Homo sapiens, UniProt Q13153) | 100
